Published values collected from several papers.
Compare with care: the assays were run in different laboratories. ± gives the spread as reported.

Structure (SMILES) | assay | system | setting | measurement | result
CC[C@H](C)C(=O)N1CCC(NC(=O)Nc2ccc(OC(F)(F)F)c(F)c2)CC1 | – | healthy volunteers | oral, 16 mg single dose | subjects with serious TEAE | 0%
CC(NC(=O)NNS(=O)(=O)c1ccc(OC(F)F)cc1)(C(F)(F)F)C(F)(F)F | – | rat Sprague-Dawley, plasma | oral | half-life | 2 h
CCCCCCCC(=O)NCCCC[C@H](NC(=O)[C@H](Cc1ccccc1)NC(=O)[C@@H](CCCNC(=N)N)NC(=O)[C@@H](N)Cc1ccc(O)cc1)C(N)=O | – | mouse, CD-1, male, brain | intravenous, 3 mg/kg | terminal half-life | 1.8 h
CC[C@@H]1C[C@]1(NC(=O)[C@@H]1C[C@@]2(CN1C(=O)[C@@H](NC(=O)[C@@H](NC(=O)[C@@H]1CCCCN1C(C)C)C1CCCCC1)C(C)(C)C)C(C)(C)C21CCC1)C(=O)NS(=O)(=O)N1CCCC1 | refers to: Pain | human | oral, 50 mg, added: ritonavir 100 mg | subjects with adverse event | 0%
CC[C@H](C)[C@@H]1NC(=O)[C@H](CCCCN)NC(=O)[C@H](CCCCN)NC(=O)[C@H](Cc2ccc(O)cc2)NC(=O)[C@H](CC(C)C)NC(=O)[C@@H]2CCCN2C(=O)[C@H](C)NC(=O)CNC(=O)CNC(=O)[C@H](CO)NC(=O)CNC(=O)CNC(=O)[C@H](CO)NC(=O)[C@H](CCC(=O)O)NC(=O)[C@H](CC(C)C)NC(=O)[C@H](CC(C)C)NC(=O)[C@H](CCCNC(=N)N)NC(=O)[C@H](CCCCN)NC(=O)[C@H]([C@@H](C)CC)NC(=O)[C@H]([C@@H](C)CC)NC(=O)[C@H](CCCCN)NC(=O)[C@H](CCCCN)NC(=O)[C@H](Cc2ccc(O)cc2)NC(=O)[C@H](CC(C)C)NC(=O)[C@@H]2CCCN2C(=O)CNC(=O)CNC(=O)[C@@H](NC(=O)CN)CSSC[C@@H](C(N)=O)NC(=O)[C@H](CC(C)C)NC(=O)[C@H](CCCNC(=N)N)NC(=O)[C@H](CCCCN)NC(=O)[C@H]([C@@H](C)CC)NC1=O | hemolysis | uninfected human erythrocytes | 1 h | HC10 | 50.1 ± 3.9 µM
CSCC[C@H](NC(=O)CNC(=O)[C@H](CC(=O)O)NC(=O)[C@@H](NC(=O)[C@@H](NC(=O)[C@@H](NC(=O)CNC(=O)[C@H](CCC(N)=O)NC(=O)[C@H](CCSC)NC(=O)[C@H](CC(=O)O)NC(=O)[C@H](C)NC(=O)[C@H](C)NC(=O)[C@@H](NC(=O)[C@H](CO)NC(=O)[C@@H](N)CC(C)C)[C@@H](C)O)C(C)C)C(C)C)[C@@H](C)O)C(=O)N[C@@H](C)C(=O)N[C@@H](CO)C(=O)NCC(=O)N[C@@H](CC(C)C)C(=O)N[C@@H](CC(=O)O)C(=O)N[C@@H](CCCCN)C(=O)N[C@@H](CC(=O)O)C(=O)N[C@@H](Cc1ccc(O)cc1)C(=O)N[C@@H](CC(C)C)C(=O)N[C@@H](CCCCN)C(=O)N1CCC[C@H]1C(=O)N[C@@H](CC(=O)O)C(=O)N[C@@H](CC(=O)O)C(=O)O | – | p53-positive advanced solid tumour patients | IV, 12 doses | MTD, highest dose level | > 50 mg/kg total
[2H]C([2H])([2H])C([2H])([2H])C([2H])([2H])OC(C(=O)OC1CCNCC1)(c1ccccc1)c1ccccc1 | refers to: rhinorrhea | healthy Japanese male | oral, 15 mg, 16 days, multiple ascending dose | adverse drug reactions | 0%
OC1(C(F)(F)F)CCN(c2nc(Nc3ccnc(C(F)(F)F)c3)nc(-c3cccc(C(F)(F)F)n3)n2)C1 (stereo not drawn) | respiratory system | Sprague-Dawley rat, both sexes | oral | NOAEL | 50 mg/kg
O=C(O)CCn1c(=O)oc2cc(Cl)c(Cl)cc21 | – | mouse, Kmo wild type, plasma | intravenous, 30 mg/kg, 1 h | plasma concentration | 263 ± 98 µM
Cc1ccc(/C=C/C(=O)O)cc1-c1cc2c(cc1C)C(C)(C)CCC2(C)C | – | rat, Sprague-Dawley, male, plasma | oral, 100 mg/kg, sesame oil vehicle | AUC(0-inf) | 24700 ng·h/mL
O=P([O-])([O-])Oc1ccc(-c2cc(=S)ss2)cc1.[Na+].[Na+] | HPLC | PBS | 1 h, pH 7.4, 25 °C | solubility | 1750 µg/mL
CCCC[C@H]1C(=O)N(C)[C@@H](CCCC)C(=O)N[C@@H](CCCNC(=O)CN2CCN(CC(=O)O)CCN(CC(=O)O)CCN(CC(=O)O)CC2)C(=O)N[C@H](C(=O)NCC(N)=O)CSCC(=O)N[C@@H](Cc2ccc(O)cc2)C(=O)N(C)[C@@H](C)C(=O)N[C@@H](CC(N)=O)C(=O)N2CCC[C@H]2C(=O)N[C@@H](Cc2c[nH]cn2)C(=O)N[C@@H](CC(C)C)C(=O)N(C)CC(=O)N[C@@H](Cc2c[nH]c3ccccc23)C(=O)N[C@@H](CO)C(=O)N[C@@H](Cc2c[nH]c3ccccc23)C(=O)N1C [gallium-68 labelled] | static PET | NOD/SCID mice, CHO-hPD-L1 xenograft, CHO-hPD-L1 tumour | intravenous, 1 h post injection, after two atezolizumab treatments, added: atezolizumab 10 mg/kg | tumour to muscle ratio | 3.5 ± 0.43
N=C(N)NCc1ccc(C(=O)NCCCC[C@H](NC(=O)CCCCCCC(=O)NCCCC[C@H](NC(=O)N[C@@H](CCC(=O)O)C(=O)O)C(=O)O)C(=O)O)cc1[131I] | – | SCID mouse, PC-3 xenografts, bone | 2 h | tissue uptake | 0.22 ± 0.07 %ID/g
CSCC[C@@H]1NC(=O)[C@@H]2CSSC[C@H](NC(=O)[C@H](CO)NC(=O)[C@H](C)N)C(=O)N[C@@H](CCCNC(=N)N)C(=O)N[C@@H]([C@@H](C)O)C(=O)N3CCC[C@H]3C(=O)N[C@@H](CCCCN)C(=O)N[C@@H](CC(=O)O)C(=O)N[C@H]3CSSC[C@H](NC(=O)[C@H](CCCCN)NC(=O)[C@H](CCCNC(=N)N)NC(=O)[C@H](CC(N)=O)NC1=O)C(=O)N[C@@H](CCCCN)C(=O)N[C@H]1CSSC[C@H](NC(=O)[C@@H]4CCCN4C(=O)[C@H](CC(=O)O)NC(=O)[C@H](C)NC3=O)C(=O)N[C@@H](C)C(=O)N[C@@H](CCCCN)C(=O)N[C@@H](CCC(=O)O)C(=O)N[C@@H]([C@@H](C)O)C(=O)NCC(=O)N[C@@H](CSSC[C@@H](C(N)=O)NC(=O)[C@H](CCCNC(=N)N)NC(=O)[C@H](CC(N)=O)NC1=O)C(=O)N1CCC[C@H]1C(=O)N[C@@H](Cc1ccc(O)cc1)C(=O)NCC(=O)N[C@@H](CCCCN)C(=O)N2 | – | DA rat pristane-induced arthritis, serum | subcutaneous, 0.1 mg/kg once weekly, 21 days | CO2 | 21 mmol/L
CN(C)C(CNC(=O)Nc1cc(C(F)(F)F)ccc1N1CCOCC1)c1ccncc1 (stereo not drawn) | – | mouse, serum | intraperitoneal, 360 mg/kg single dose | serum magnesium | 6.1 mg/dL
C/C=C/C=C/C/C=C/CCCCCCCc1cccc(O)c1O | – | female Kunming mice, tumour-bearing, liver | intravenous, 10 mg/kg, 0.083 h | tissue concentration | 47200 ± 3690 ng/g
CC[C@H](C)[C@@H]1NC(=O)[C@H](CCCCN)NC(=O)[C@H](CCCCN)NC(=O)[C@H](Cc2ccc(O)cc2)NC(=O)[C@H](CC(C)C)NC(=O)[C@@H]2CCCN2C(=O)CNC(=O)CNC(=O)[C@@H](NC(=O)CN)CSSC[C@@H](C(=O)N[C@@H](CCC(=O)O)C(=O)N[C@@H](CO)C(N)=O)NC(=O)[C@H](CC(C)C)NC(=O)[C@H](CCCCN)NC(=O)[C@H](CCCCN)NC(=O)[C@H]([C@@H](C)CC)NC(=O)[C@H]([C@@H](C)CC)NC(=O)[C@H](CCCCN)NC(=O)[C@H](CCCCN)NC(=O)[C@H](Cc2ccc(O)cc2)NC(=O)[C@H](CC(C)C)NC(=O)[C@@H]2CCCN2C(=O)[C@H](C)NC(=O)CNC(=O)CNC(=O)[C@H](CO)NC(=O)CNC(=O)CNC(=O)[C@H](CO)NC(=O)[C@H](CCCCN)NC(=O)[C@H](CC(C)C)NC(=O)[C@H](CC(C)C)NC(=O)[C@H](CCCCN)NC(=O)[C@H](CCCCN)NC(=O)[C@H]([C@@H](C)CC)NC1=O | hemolysis | uninfected human erythrocytes | 1 h | HC10 | 34.9 ± 5.5 µM
CC(C)[C@H](NC(=O)CNC(=O)[C@H](CCC(N)=O)NC(=O)[C@H](C)N)C(=O)O | – | healthy male volunteers | intravenous, 45 mg/kg/h, 2 h, added: LPS 2 ng/kg | subjects with Probably related AE | 0%
COC(=O)C[C@H](NC(=O)[C@H](C)NC(=O)[C@@H](NC(=O)[C@H](CC(=O)OC)NC(=O)[C@@H](NC(=O)c1ccc2ccccc2n1)C(C)C)C(C)C)C(=O)COc1c(F)cccc1F | – | rat pups | 1 mg/kg, 1 h | PaCO2 | 42.1 ± 2.58 mmHg
CCCC[C@H](NC(=O)CN1CCC(NC(=O)CN2CCC(NC(=O)CN3CCN(CC(=O)O)CCN(CC(=O)O)CCN(CC(=O)O)CC3)CC2)CC1)C(=O)N[C@H]1CC(=O)NCCCC[C@@H](C(N)=O)NC(=O)[C@H](Cc2c[nH]c3ccccc23)NC(=O)[C@H](CCCNC(=N)N)NC(=O)[C@@H](Cc2ccccc2)NC(=O)[C@H](Cc2c[nH]cn2)NC1=O [gallium-68 labelled] | radio-HPLC | mouse, plasma | intravenous, 8 to 12 MBq, 5 min post injection | intact compound | > 96%
CC(Nc1c(-c2c(F)cc(OCCCN(C)C)cc2F)c(Cl)nc2ncnn12)C(C)(C)C (stereo not drawn) | – | BALB/c mice | intraperitoneal, up to 48 h, single increasing doses | maximum tolerated dose | 15 to 20 mg/kg
C=Cc1c(C)c2cc3nc(c(CC(=O)O)c4[nH]c(cc5nc(cc1[nH]2)C(C)=C5CC)c(C)c4C(=O)O)[C@@H](CCC(=O)NCCCC[C@H](NC(C)=O)C(=O)N[C@@H](Cc1ccccc1)C(=O)N[C@@H](Cc1ccccc1)C(=O)N[C@H](C(=O)N[C@@H](CC(C)C)C(=O)N[C@@H](CCCCN)C(=O)N[C@@H](CO)C(=O)NCC(=O)N[C@@H](CCC(N)=O)C(=O)N[C@@H](Cc1ccc(O)cc1)C(=O)N[C@@H](C)C(=O)N[C@@H](CO)C(=O)N[C@@H](Cc1ccc(O)cc1)C(=O)N[C@@H](Cc1c[nH]cn1)C(=O)N[C@@H](CS)C(=O)N[C@@H](Cc1c[nH]c2ccccc12)C(=O)N[C@@H](CS)C(=O)N[C@@H](Cc1c[nH]c2ccccc12)C(=O)N[C@@H](CCCNC(=N)N)C(=O)N[C@@H](CC(=O)O)C(=O)N1CCC[C@H]1C(=O)NCC(=O)N[C@@H](CCCNC(=N)N)C(=O)N[C@@H](CO)C(=O)NCC(=O)NCC(=O)N[C@@H](CO)C(=O)N[C@@H](CCCCN)C(N)=O)C(C)C)[C@@H]3C | CCK-8 | HFF, human | 1 to 200 µM, 24 h | cytotoxicity | not toxic
c1ccc(C2(CCNC3CCC4(SCCS4)c4ccccc43)CCOC3(CCCC3)C2)nc1 (stereo not drawn) | – | Sprague-Dawley rat, plasma | intravenous, 0.05 mg/kg | clearance | 17 mL/min/kg
CCCCn1c2ccccc2c2ccnc(-c3ccc(OC)cc3)c21 | OECD guideline | Kunming mice, both sexes | oral, single dose, 14 days | LD50 | 1110 mg/kg
